Experimental data of several laboratories.
Protocols differ between the studies behind these lines. Several values in a cell are separate wells, animals, samples, runs or records. ± gives the spread as reported.

SMILES	target or system	test	conditions	how to read	quantity	result
COC(=O)c1cc(NC2=NC(=O)C(=Cc3ccc(C)cc3)S2)ccc1OC(C)=O	MCF7	GC-MS, measured: Decanoic acid	1 µM	reference: DMSO	metabolite level	-0.61 fold change
O=C(Nc1ccc(Sc2ccc3c(/C=C/c4ccccn4)n[nH]c3c2)cc1)Nc1ccc(F)c(F)c1	Ba/F3 TEL-VEGFR1	cell growth, CCK-8	–	–	GI50	1020 nM
O=C(N/N=C/c1ccc(C[n+]2ccccc2)cc1)N/N=C/c1ccc(C[n+]2ccccc2)cc1	hp2 hairpin duplex DNA	FRET melting	1 µM	–	ΔTm	1.1 ± 0.1 °C
Cc1ccncc1.[Cl-].[Cl-].[Ru+2].c1cc(-c2ccc3cccnc3n2)nc(-c2ccc3cccnc3n2)c1.c1ccc2cc3nc4c5cccnc5c5ncccc5c4nc3cc2c1	A-375	–	visible light 100 J/cm2	reference: dark EC50 over light EC50	phototherapeutic index	45
CC(=O)OC[C@H]1O[C@@H](n2cc(CSc3nc4ccccc4n3Cc3cn([C@@H]4O[C@H](COC(C)=O)[C@@H](OC(C)=O)C(OC(C)=O)[C@H]4OC(C)=O)nn3)nn2)[C@H](OC(C)=O)C(OC(C)=O)[C@@H]1OC(C)=O (stereo in doubt)	MDA-MB-231	MTT	500 ppm	–	cytotoxicity	92.5%
CC[n+]1cccc2cc(/C=N/NC(=O)c3cncc(C(=O)N/N=C/c4ccc5c(ccc[n+]5CC)c4)n3)ccc21	hp2 hairpin duplex DNA	FRET melting	1 µM	–	ΔTm	1.8 ± 0.1 °C
Cn1ncc2cc(-c3cncc(Cl)c3N3CCC4(CCNC4=O)CC3)ccc21	LS174T	gene expression, microarray, measured: SEMA4D mRNA	concentration not given, 24 h	reference: untreated cells	log2 fold change	2.05
CNS(=O)(=O)Nc1nccc(Cc2c(C)c3ccc(Oc4ncccc4F)cc3oc2=O)c1F	NCI-H292	cell viability	7 days	–	IC50	0.402 nM
CC(C)(C)c1cc(-c2ccc3cc4ccccc4nc3n2)nc(-c2ccc3cc4ccccc4nc3n2)c1.Cc1ccncc1.[Cl-].[Cl-].[Ru+2].c1ccc2cc3nc4c5cccnc5c5ncccc5c4nc3cc2c1	A-375	resazurin	with: light 523 nm, 100 J/cm2	reference: dark EC50 over light EC50	phototoxicity index	4
CO[C@@H]1[C@@H](OC(N)=O)[C@@H](O)[C@H](Oc2ccc3c(O)c(NC(=O)c4ccc(O)c(CC=C(C)C)c4)c(=O)oc3c2C)OC1(C)C	DLD-1 parental	–	250 µM, replicate 2	–	colony count	0.1
C=CC(=O)N1CCCC(n2c(=O)c3ncccc3n(Cc3ccc(Oc4ccccc4)cc3)c2=O)C1 (stereo not drawn)	OCI-Ly1	cell growth or viability, MTT	72 h	–	IC50	250 nM
Cc1ncsc1-c1ccc(C(C)NC(=O)C2CC(O)CN2C(=O)C(NC(=O)CCCCCCCCCCN2CCCC(Nc3ncc(Cl)c(Nc4ccccc4S(=O)(=O)C(C)C)n3)C2)C(C)(C)C)cc1 (stereo not drawn)	22Rv1	RNA-seq, measured: PEX12 mRNA	concentration not given	reference: DMSO	log2 fold change	-1.5
CSC(=S)N/N=C(\C)c1ccc(Nc2nnc(-c3ccc(Cl)cc3)c3ccccc23)cc1	MCF7	cell growth or viability, MTT	10 µM	–	cell death	92.8%
O=C1CC[C@H](N2Cc3cc(-c4ccn5ncc(Cl)c5n4)ccc3C2=O)C(=O)N1	MOLM-13	mRNA level, RNA-seq, measured: TRIB3	200 nM, 24 h	reference: DMSO	log2 fold change	-3.31
[177Lu+3].[Cl-].[Cl-].[Cl-]	4T1	flow cytometry	0.4 Bq/cell, 72 h	–	live cells	65.8%
COc1ccc2c(c1)OC1=C(C(=O)CCC1)C2c1c[nH]c2ccccc12 (stereo not drawn)	3T3-L1 during adipogenesis	Oil Red O	IC20	reference: untreated	lipid content reduction	~80%
CN1CCCNC(=O)c2cccc(c2)C(=O)NCCCN(C)CCCNc2cccc3c2C(=O)c2cccc(c2C3=O)NCCC1	SAS	RNA-Seq, measured: CHTF8 mRNA	1 µM, 6 h	reference: untreated cells	log2 fold change	0.563
Cc1cc(/C=C/c2ccc(O)c(O)c2)[nH]n1	A549	PI staining flow cytometry	50 µM, 48 h	–	cells in pre-G1 phase	5.02%
CC1(C)C[C@@H](Nc2cccc(-c3sc(C(=O)O)c(OCC(=O)O)c3Cl)c2)CCN1S(=O)(=O)Cc1cccc(NC(=O)CN2CCC(c3ccc4c(c3)oc(=O)n4C3CCC(=O)NC3=O)CC2)c1 (stereo partly drawn)	B16-F10	HTRF, measured: phospho-STAT1 Tyr701	10 µM, with: IFN-γ	reference: DMSO	fold change	5.46 and 5.64 and 5.63 and 5.55 and 5.27 and 5.11
Cc1cc(Cl)cc(-c2ccnc3cc(CN4C(=O)C5C(C4=O)C5(C)C)sc23)c1C[C@@H]1CNCCO1 (stereo partly drawn)	CHP-212 parental (wild-type USP7)	annexin V-PI flow cytometry	0.3 µM, 48 h	–	viable cells (annexin V-/PI-)	58.2% and 71.5% and 62.7%
Cc1nc2c(F)cc(-c3nc(Nc4ccc(CNC(=O)CCCCCCC(=O)NO)cc4)ncc3F)cc2n1C(C)C	4T1	cell growth or viability, CCK-8	0.3 µM, 48 h	–	inhibition	101%
COc1ccccc1-c1ccncc1C(=O)Nc1nnc(OCc2ccc(Cl)cc2)s1	DLD-1 BRCA2 wild-type	immunofluorescence	5 µM, 96 h, >5 foci per nucleus	–	γH2AX foci-positive nuclei	24.2% and 21% and 23%
CN(C)c1ccc(-n2cc(COC(=O)[C@@]3(C)C=C(C(=O)OC(C)(C)C)C(=O)CC3)nn2)cc1	AP-1 reporter HEK293	AP-1 reporter gene, luciferase reporter	1 µM, 6 h, with: PMA 6 ng/mL	reference: PMA alone	luminescence relative to PMA	0.973
CC(=O)NCCCN(C)CCCNc1cccc2c1C(=O)c1cccc(NCCCN(C)CCCNC(C)=O)c1C2=O	SAS	RNA-Seq, measured: WRAP73 mRNA	1 µM, 6 h	reference: untreated cells	log2 fold change	-0.559
CCCCCCCCCCCC(=O)N[C@H](CO)C[C@@H](O)c1ccccc1	HeLa	HPLC-MS/MS	1 µM, 24 h	–	LacCer 16 level	23400 pmol/sample and 20800 pmol/sample and 21600 pmol/sample
COCCn1cc(COc2cccc(Cc3cnc(NC(=O)CSc4nc(C)cc(C)n4)s3)c2)nn1	PC-3M-luc	colony formation, colony forming	10 µM	–	inhibition	15.1 ± 13%
CC(C)c1ccc(N(C)c2ccc3c(c2)OCC[C@H]3CNc2cnccc2C(=O)O)cc1	HCC1428	cell viability, CellTiter-Glo	7 days	–	IC50	≥ 10000 nM
CCN(C(=O)c1cc(F)ccc1Oc1nncnc1N1CCC2(C1)CN([C@H](CCCN(C)CCOC)C(C)C)C2)C(C)C	COLO 205	cell growth or viability	7 days	–	GI50	> 10000 nM
CC(C)(C)c1cc(-c2ccc3cccnc3n2)nc(-c2ccc3cccnc3n2)c1.[Cl-].[Cl-].[Ru+2].c1cnc2c(c1)ccc1cccnc12	A-375	resazurin	with: light 523 nm, 100 J/cm2	reference: dark EC50 over light EC50	phototoxicity index	2
CCN(CC)CC(=O)Nc1cccc(-n2cc(-c3ccc4ccc(-c5cn(-c6cccc(NC(=O)CN(CC)CC)c6)nn5)cc4c3)nn2)c1	RCC4	PCR angiogenesis array, measured: GAPDH	5 x IC50, 6 h, normoxia	reference: untreated	fold regulation	-1.28 fold

Repeated from above:
SMILES	target or system	test	conditions	how to read	quantity	result
CC(C)(C)c1cc(-c2ccc3cccnc3n2)nc(-c2ccc3cccnc3n2)c1.[Cl-].[Cl-].[Ru+2].c1cnc2c(c1)ccc1cccnc12	A-375	resazurin	with: light 523 nm, 100 J/cm2	reference: dark EC50 over light EC50	phototoxicity index	2
CCN(CC)CC(=O)Nc1cccc(-n2cc(-c3ccc4ccc(-c5cn(-c6cccc(NC(=O)CN(CC)CC)c6)nn5)cc4c3)nn2)c1	RCC4	PCR angiogenesis array, measured: GAPDH	5 x IC50, 6 h, normoxia	reference: untreated	fold regulation	-1.28 fold
